Assay results pooled from the literature.
Protocols differ between the studies behind these lines.
RET M918T: Proto-oncogene tyrosine-protein kinase receptor Ret (RET, Homo sapiens, UniProt P07949, M918T)
RET: Proto-oncogene tyrosine-protein kinase receptor Ret (RET, Homo sapiens, UniProt P07949)
RET V804L: Proto-oncogene tyrosine-protein kinase receptor Ret (RET, Homo sapiens, UniProt P07949, V804L)

C=CC(=O)N1CCc2ccc(-n3c(=O)ccc4cnc5ccc(-c6cnn(C)c6)cc5c43)cc21  remaining binding (RET M918T; KINOMEscan; 1 µM; baseline: DMSO control): 98%
Cc1ccc(-c2c(/C=C(\C#N)C(=O)NC(C)C)n(CCCO)c3ncnc(N)c23)cc1  remaining binding (RET; cell-free assay, competition with immobilised ligand; 1 µM): 26%
CC(C)=CC1OC(C)(C)C2C=C3C(=O)C(Cl)=CC(O)C3C3C(O)C4OC4C(=O)C132 (centres unmarked)  remaining binding (RET M918T; cell-free assay, competition with immobilised ligand; 10 µM): 88%
CCN1CCN(Cc2ccc(C(=O)Nc3ccc(C)c(NCc4cnc5[nH]ccc5c4OC)c3)cc2C(F)(F)F)CC1  remaining binding (RET; binding, competition with immobilised ligand; 1 µM): 0.25%
Nc1ncc2c(n1)-c1c([nH]c3ccc(C4=CCOCC4)cc13)CCC2  remaining binding (RET V804L; binding, competition with immobilised ligand; 1 µM): 100%
C=CC(=O)N1CCCC(n2c(=O)c3ncccc3n(Cc3ccc(Oc4ccccc4)cc3)c2=O)C1 (centres unmarked)  remaining binding (RET; cell-free assay, competition with immobilised ligand; 1 µM): 91%
Cc1cc(NC(=O)[C@H](O)c2cc(F)cc(F)c2)ccc1-c1cnc(N)c(C(=O)NC(C)C)c1  remaining binding (RET M918T; binding, competition with immobilised ligand; 10 µM): 75%
Cc1cnc2nc1Nc1cccc(c1)COC/C=C/COCc1cc(ccc1OCCN1CCOCC1)N2  remaining binding (RET (Homo sapiens, UniProt P07949, V804M); binding; 0.1 µM): 11%
COc1c(Cl)cccc1Nc1c(-c2ccncc2C#C[C@@]2(C)CCCN2C(=O)/C=C/CN(C)C)[nH]c2c1C(=O)NCC2  remaining binding (RET M918T; binding, competition with immobilised ligand; 3 µM): 87%
CNC1C[S+]2CC[S+]3CC[S+](C1)[Ru-4]321([N]=C=S)[n]2c3ccc(OC)cc3c3c4c(c5cc(F)c[n+]1c5c32)C(=O)NC4=O (centres unmarked)  remaining binding (RET V804L; KinomeScan; 0.1 µM; baseline: untreated): 100%
CNC(=O)C1CCN(c2cc(C)c(F)cc2NC(=O)c2ccc(-c3cc(O)ccc3C)c(C)c2)CC1  remaining binding (RET M918T; binding, competition with immobilised ligand; 1 µM): 27%
